# Results gathered from unrelated publications.
# Parts stem from different laboratories: compare values within a part only. Changes are numbered by the printed parent chain.

# Study 1
# Target: ABI1, truncated, D143A, DHFR fusion (Arabidopsis thaliana)
# Technique: DHFR PCA, deep sequencing
# Medium: yeast
# Notes: methotrexate growth selection, single substitutions
# Added: (+)-ABA 4.8 µM
# Baseline: wild-type fitted maximum
# Direction: higher = stronger binding
# Parent: PYL1, truncated, DHFR fusion (Arabidopsis thaliana); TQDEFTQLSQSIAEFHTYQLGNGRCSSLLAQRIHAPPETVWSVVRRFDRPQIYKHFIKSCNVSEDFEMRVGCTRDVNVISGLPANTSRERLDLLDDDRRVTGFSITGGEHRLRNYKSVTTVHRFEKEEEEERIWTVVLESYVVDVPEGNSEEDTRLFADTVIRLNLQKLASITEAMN; partner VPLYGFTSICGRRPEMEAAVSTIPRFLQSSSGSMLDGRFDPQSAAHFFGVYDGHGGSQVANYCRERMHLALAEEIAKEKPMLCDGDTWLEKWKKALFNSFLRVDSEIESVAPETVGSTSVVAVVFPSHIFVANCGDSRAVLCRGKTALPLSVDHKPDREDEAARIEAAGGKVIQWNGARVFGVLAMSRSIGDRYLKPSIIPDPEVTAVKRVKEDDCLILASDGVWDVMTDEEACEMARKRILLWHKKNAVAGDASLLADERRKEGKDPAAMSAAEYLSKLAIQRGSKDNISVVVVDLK
Substitution,relative binding score [%]
R74L,-2.49
F56W,53.2
E125D,71.1
D95E,17
D92L,1.5
D144V,6
I12V,57.6
E128H,73.8
N77K,83.9
E127H,76.1
N114L,-5.73
P50I,-13.7
K58I,4.41
V62A,16
V44E,11.4
L82K,-8.17

# Study 2
# Target: RING finger protein unkempt homolog, zinc fingers 1-6, GST-SBP tag (UNK, Homo sapiens, UniProt Q9C0B0, residues 30-357)
# Technique: RNA Bind-n-Seq
# Form: RNA
# Medium: in vitro
# Concentration: not given
# Notes: RNA with constant flanks, human and mouse sites, ends assumed
# Baseline: input RNA pool
# Direction: higher = stronger binding
# Target sequence (chain): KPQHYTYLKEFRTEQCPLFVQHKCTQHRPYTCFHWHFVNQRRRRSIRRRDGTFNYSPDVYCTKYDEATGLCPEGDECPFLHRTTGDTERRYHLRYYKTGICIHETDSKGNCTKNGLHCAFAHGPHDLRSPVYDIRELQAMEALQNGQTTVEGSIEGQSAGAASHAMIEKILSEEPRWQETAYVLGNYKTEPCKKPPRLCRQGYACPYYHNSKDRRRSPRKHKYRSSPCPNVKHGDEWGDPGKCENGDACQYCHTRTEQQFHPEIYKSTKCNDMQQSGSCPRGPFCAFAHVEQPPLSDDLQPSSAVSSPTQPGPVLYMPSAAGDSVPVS
Strand,bound/input enrichment [ratio]
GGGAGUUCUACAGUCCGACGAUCUGUGGCCUCACUAAAGGUGGGGUCGCUUAGUCCCCGGGAGUAAAAUGAGUGACCUCAGAAACAAGAAUUCCUGGAAAGGCACAUGCCGAAGAGGAAUAUGGUAUAAUUUUAAAUUUUAAUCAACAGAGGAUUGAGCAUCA,1.68
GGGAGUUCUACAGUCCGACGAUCACUCUCUUCCCCCCUUUUUGAGUUGUUGGGCAGUUCUUAUUUCUUGCUUGCUUUUCGGUUUCUUGCUGUUGUUGGGUGUUUUUUUUGUUUGUUUGUUUGUUUGUUUGUUCUCGCUUUUUUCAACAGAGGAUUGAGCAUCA,1.96
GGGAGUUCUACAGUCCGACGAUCACGCUGCCCUCGGACAAGCUGAGCAAGAUUCAGACCCUCAAGCUGGCGGCCAGGUACAUCGACUUCCUCUACCAGGUCCUCCAGAGCGACGAGCUGGACUCCAAGAUGGCAAGCUGCAGCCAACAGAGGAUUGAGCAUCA,0.133
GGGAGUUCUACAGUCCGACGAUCAGAGAACAGUUUAAUGACCUCUCUAUUGACCUUCCUCGUAGGAAAAAACCACUCCCUCCUCGUUCAAUUCAAGAUUCUCUUGAUCUUUUCUUUAGGGCCGAAGAACUGGAGUAUUCUUGUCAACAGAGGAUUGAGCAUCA,0.177
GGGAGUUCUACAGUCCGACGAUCGUAUUCGACUUAAAAGAAAGAAAUCAGUGGUUGCGAAGGAAUAUCAAAAACCUACUUCAACAGCUUAUUAGAGCUACAUAUGGCGAUACUAUUAAUAGAAAAAUAGUUGACCAUGUUGACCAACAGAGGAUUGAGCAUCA,0.339
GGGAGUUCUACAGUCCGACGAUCAUGGGAAUGGACAUCCACAGAUCCCUGUUGGUCACUGGGAUCCCUGAGUACUGUAGCCACGCAGAAAUUGAGGAGACCUUGAAUGGGGUCCUCUUGCCACUGGGCACAUACCGUGUGCUCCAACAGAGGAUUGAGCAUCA,0.105
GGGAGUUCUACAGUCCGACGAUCGUUCCGGAAAUCAUGGAUCGGAUCUACAAAAAUGUCAUGAAUAAAGUCAGUGAAAUGAGUAGUUUUCAACGUAAUCUGUUUAUUCUGGCCUAUAAUUACAAAAUGGAACAGAUUUCAAAACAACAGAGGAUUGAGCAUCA,0.321
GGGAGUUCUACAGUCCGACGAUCGUUUUUUGUUGUUGUUGUUGUUGUUUUUUUUUUUUGAGGUGGGGAAUUUCUGUUUAUUUCAUUUUGUAGAGCUGGACAAUUGAGUCCAGGGCCUCUCAAAUGCUAGGCAAAACUCUGUCACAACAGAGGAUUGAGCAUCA,1.13
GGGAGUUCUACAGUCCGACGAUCCUUUAAGUCUUUGAGAGGGGCCUGAAGAGCCUCCGGGCUCCUGGGACAUUGAUGUAGAGUUUUUAGUGAAGUGGGCACCUUUCUAGUCCACGGCAUUUGAAGAGAGCGAGGAGAACCAUUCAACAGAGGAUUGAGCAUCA,0.441
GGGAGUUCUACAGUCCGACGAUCGUGCUCCAGGUGGACUCUGGUGCCAACGCCACGGCCACGGCUCGCUGGCCUGGGGGCAGUGUCAGCGCCCGCUUUGAGAAUGUCUGCCCUGCCCUGGUGGCCACCUUCGUGCCCGGCUGCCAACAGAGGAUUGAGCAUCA,0.104
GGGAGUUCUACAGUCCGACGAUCGGCAGCAACCCCACGUCCGCCUCGGAUGACUCCAACGGGCUGGAGUGGGAGAACGACUUUGUCAGUGCCGAGAUGGACGACAACGGCAACUCUGAGUACUCCGGGUUUGUGAACCCUGUGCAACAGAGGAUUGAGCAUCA,0.0565

# Study 3
# Target: PABPC1L2, full length, GST fusion (mouse, UniProt A0ABA7IW68)
# Technique: RNAcompete
# Form: RNA
# Medium: in vitro
# Concentration: 20 nM
# Notes: 7-mer, probes averaged, single round
# Baseline: mean of 7-mers
# Direction: higher = stronger binding
# Residues (chain): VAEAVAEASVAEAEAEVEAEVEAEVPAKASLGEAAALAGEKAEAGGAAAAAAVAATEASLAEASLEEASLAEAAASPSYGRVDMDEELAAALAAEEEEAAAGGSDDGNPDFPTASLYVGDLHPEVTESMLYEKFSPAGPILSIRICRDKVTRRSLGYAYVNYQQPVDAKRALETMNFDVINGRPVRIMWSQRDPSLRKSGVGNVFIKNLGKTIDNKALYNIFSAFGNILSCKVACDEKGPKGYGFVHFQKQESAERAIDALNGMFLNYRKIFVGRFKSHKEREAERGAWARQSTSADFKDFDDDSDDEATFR
Strand,7-mer Z-score
UACAUAC,-0.24
CUCUCCA,-0.257
GUUUGGG,-0.409
CUUCUAC,-0.2
AUUGGUA,0.0225
AAACAUU,2.94
GGCAUCC,-0.0609
UUAAUCG,-0.161
CUCUUCA,-0.393
GGAUGUA,0.00979
AGAAUCC,-0.296
UAUAUUA,-0.0844
GUCGGGU,-0.153
CCUUAAC,-0.376
UGAGAAA,0.852
ACACAAC,0.0497
GUUAUCC,-0.204
UGUACAA,0.265
CCCCGAU,-0.324
GCUACUU,-0.2
CGCCCAC,-0.467
GAAGAGG,0.343
AAUAGGG,0.644
GCUAGAU,-0.0663
CCCAAAU,-0.0718

# Study 4
# Target: CCND3, cyclin fold, Cln2 fusion (human)
# Technique: yeast growth competition, sequencing
# Medium: yeast
# Notes: weak parent motif
# Baseline: not given
# Direction: higher = stronger binding
# Parent: ORC1 docking peptide (human); PRARKRLELGNLG
Substitution,normalised enrichment score
R4N,0.206
L12E,0.129
L12T,0.101
G13C,0.168
L7G,0.0483
R2A,0.149
R6N,0.108
L12Q,0.108
L12C,0.151
R2F,0.104
P1L,0.0748
E8D,0.28
L7T,0.0702
G10I,0.115
R4P,0.129
R2Q,0.0754
N11D,0.0966
G13T,0.0659
E8Y,0.129
K5L,0.152
R2K,0.0368
A3G,0.0824
R2N,0.136
R4A,0.116
R4S,0.081

# For quick reference, copied from above (study 3):
Strand,7-mer Z-score
UGUACAA,0.265
UGAGAAA,0.852
UUAAUCG,-0.161
CCUUAAC,-0.376
GUCGGGU,-0.153
CUUCUAC,-0.2
